Measurements pooled from the literature.
Lines come from different studies, so protocols differ. “And” joins repeats or separate records; there may be more than shown.

`C[C@H]1[C@H](OC(=O)CCC(=O)OCCC2CCN(CC(=O)Nc3ccc([N+](=O)[O-])c(C(F)(F)F)c3)CC2)O[C@@H]2O[C@@]3(C)CC[C@H]4[C@H](C)CC[C@@H]1[C@@]24OO3` has an IC50 of 1.03 µM (Hep3B; cell growth or viability, CCK-8).
For `COC(=O)[C@H](C(C)C)N(C)C(=O)[C@H](C(C)C)N(C)C(=O)[C@@H]1CCCN1C(=O)[C@H](C)N(C)C(=O)OC(C)(C)C`, the IC50 was 2.92 µM and 2.98 µM and 3.01 µM (DU-145; cell growth or viability, SRB).
For `CC(=O)N[C@H](C(=O)N[C@@H](CCCNC(=N)N)C(=O)N[C@@H](CCCCN)C(=O)N[C@@H](CCCNC(=N)N)C(=O)N[C@]1(C)CCCCCCC=CCCC[C@@](C)(C(=O)N[C@@H](CCCNC(=N)N)C(=O)N[C@@H](CCC(=O)O)C(=O)N[C@@H](CC(C)C)C(=O)N[C@H](C(=O)N[C@@H](CCC(=O)O)C(N)=O)C(C)C)NC(=O)[C@H](CCC(N)=O)NC(=O)[C@H](CC(C)C)NC(=O)[C@H](CC(C)C)NC(=O)[C@H](CCCNC(=N)N)NC(=O)[C@H](CCCNC(=N)N)NC(=O)[C@H](CC(C)C)NC1=O)C(C)C`, the IC50 was 0.94 µM (H3255 (EGFR L858R); cell viability; 18 h, serum-free).
With `CCOc1ccc(Br)cc1-n1c(CN2CCNCC2)nc2ccccc2c1=O` the IC50 was 0.7 µM (PANC-1; cell growth or viability, ATP luminescence; 72 h).
With `[CH3][Ti+2][O]C(=O)c1ccc([S][Au][PH](c2ccccc2)(c2ccccc2)[c-]2cccc2)cc1.[Fe+2].c1cc[cH-]c1.c1cc[cH-]c1.c1cc[cH-]c1` the IC50 was 8.22 µM (CAKI-1; cell growth or viability, XTT; 24 h).
`CC[C@H](C)[C@H](NC(=O)[C@H](C)NC(=O)[C@@H](N)Cc1c[nH]cn1)C(=O)N[C@@H](Cc1ccc(O)cc1)C(=O)N1CCC[C@H]1C(=O)N[C@@H](CCCNC(=N)N)C(=O)N[C@@H](Cc1c[nH]cn1)C(=O)N[C@@H](CC(C)C)C(=O)N[C@@H](CCC(=O)O)C(=O)N[C@H](C(=O)N[C@@H](C)C(=O)N[C@H](C(=O)N[C@@H](CC(N)=O)C(=O)N[C@@H](CC(C)C)C(=O)N[C@@H](C)C(=O)N[C@@H](Cc1c[nH]c2ccccc12)C(=O)O)C(C)C)[C@@H](C)O` has an IC50 of greater than 10.7 µM (CLL patient PBMCs; cell death, PI staining flow cytometry; 90 min).
With `CC(C)C12OC1C1OC13C1(C)CCC4=C(COC4=O)C1CC1OC13C2OC(=O)CCCOC1OC(CO)C(O)C(O)C1O` (stereo not shown) the IC50 was 4.72 µM (primary prostate epithelial cells; cell viability, XTT; 47 h).
The IC50 of `CCCCCCCC(=O)NCCCC[C@H](NC(=O)CCCCCCC)C(=O)N[C@@H](CCCCNC(=O)CCCCCCC)C(=O)NCC(=O)NCC(=O)NCC(=O)N[C@@H](CS)C(=O)N[C@@H](CCCNC(=N)N)C(=O)N[C@@H](CCCCN)C(=O)N1CCC[C@H]1C(=O)N[C@@H](CS)C(=O)N[C@@H](CCCNC(=N)N)C(=O)N[C@@H](CCCCN)C(=O)N1CCC[C@H]1C(=O)N[C@@H](CS)C(=O)N[C@@H](CCCNC(=N)N)C(=O)N[C@@H](CCCCN)C(=O)N1CCC[C@H]1C(=O)N[C@@H](CS)C(=O)N[C@@H](CCCNC(=N)N)C(=O)N[C@@H](CCCCN)C(=O)N1CCC[C@H]1C(N)=O` is reported as 163 µM (IPEC-J2; cell growth or viability, MTT; 24 h).
The IC50 of `Cc1cc(Nc2nc(C[C@@]3(C(=O)O)CCN(Cc4cccc(Cl)c4F)[C@H](C)C3)cc(C)c2F)[nH]n1` is reported as 0.157 µM (HCC70; cell growth or viability, ATP luminescence; 5 days).
For `CC(C)C12OC1C1OC13C1(C)CCC4=C(COC4=O)C1CC1OC13C2OC(=O)CCC(=O)OC1OC(CO)C(O)C(O)C1O` (stereo not shown), the IC50 was 15.5 µM (SNU-387; cell growth or viability, XTT; 47 h).
The IC50 of `C[C@@H]1COCCN1c1nc(NCc2cccnc2C(F)(F)F)c2cccnc2n1` is reported as greater than 20 µM (cardiomyocytes; calcium signalling; in vitro toxicology).
`CC[C@H](C)[C@H](NC(=O)[C@H](Cc1c[nH]cn1)NC(=O)[C@H](CCCNC(=N)N)NC(=O)[C@H](CCCNC(=N)N)NC(=O)[C@H](CCCNC(=N)N)NC(=O)CNC(=O)[C@H](CCCNC(=N)N)NC(=O)[C@H](CCCNC(=N)N)NC(=O)[C@H](CCCNC(=N)N)NC(=O)[C@H](CCC(N)=O)NC(=O)[C@H](CCCNC(=N)N)NC(=O)[C@H](CCCNC(=N)N)NC(=O)[C@H](CCCCN)NC(=O)[C@H](CCCCN)NC(=O)[C@H](CCCNC(=N)N)NC(C)=O)C(=O)N[C@H](C(=O)N[C@@H](CCCNC(=N)N)C(=O)N[C@@H](CCCCN)C(=O)N[C@@H](CCCNC(=N)N)C(=O)N[C@H](C(=O)N[C@@H](CC(C)C)C(=O)N[C@@H](CCCNC(=N)N)C(=O)N[C@@H](CCCNC(=N)N)C(=O)N[C@@H](CC(C)C)C(=O)N[C@@H](CC(C)C)C(=O)N[C@@H](CCC(N)=O)C(=O)N[C@@H](CCC(=O)O)C(=O)N[C@@H](CCCNC(=N)N)C(N)=O)[C@@H](C)O)C(C)C` gave an IC50 of greater than 10 µM (SK-N-MC; cell viability; 18 h, serum-free).
The IC50 of `CCOc1cccc(Br)c1-n1c(CN2CCNCC2)nc2ccccc2c1=O` is reported as 2.2 µM (PANC-1; cell growth or viability, ATP luminescence; 72 h).
With `CC1CCC2C(C)C(OC(=O)CCC(=O)N3CCN(CC(=O)Nc4ccc([N+](=O)[O-])c(C(F)(F)F)c4)CC3)OC3OC4(C)CCC1C32OO4` (stereo not shown) the IC50 was 0.56 µM (OVCAR-3; cell growth or viability, CCK-8).
`CC(=O)N[C@H](C(=O)N[C@@H](CCCNC(=N)N)C(=O)N[C@@H](CCCCN)C(=O)N[C@@H](CCCNC(=N)N)C(=O)N[C@H](C(=O)N[C@@H](CC(C)C)C(=O)N[C@@H](CCCNC(=N)N)C(=O)N[C@]1(C)CCCC=CCCC[C@@](C)(C(=O)N[C@@H](CCC(=O)O)C(=O)N[C@@H](CCCNC(=N)N)C(=O)N[C@@H](CCC(=O)O)C(=O)N[C@@H](CC(C)C)C(=O)N[C@H](C(=O)N[C@@H](CCC(=O)O)C(N)=O)C(C)C)NC(=O)[C@H](CC(C)C)NC(=O)[C@H](CC(C)C)NC1=O)[C@@H](C)O)C(C)C` gave an IC50 of greater than 100 µM (H3255 (EGFR L858R); cell viability, ATP luminescence; 18 h).
`CCOc1ccccc1-n1c(CN2CCNCC2)nc2ccccc2c1=O` has an IC50 of 0.186 µM (KP3; 72 h).
For `Cc1cc(Oc2nc(N3CC[C@@H](c4ccncc4)C3)ncc2F)[nH]n1`, the IC50 was 58.9 µM (bladder cancer cell lines; cell proliferation; average over lines).
For `CC(=O)N[C@H](C(=O)N[C@@H](CCCNC(=N)N)C(=O)N[C@@H](CCCCN)C(=O)N[C@@H](CCCNC(=N)N)C(=O)N[C@H](C(=O)N[C@@H](CC(C)C)C(=O)N[C@@H](CCCNC(=N)N)C(=O)N[C@@]1(C)CCCC=CCCC[C@@](C)(C(=O)N[C@@H](CCCNC(=N)N)C(=O)N[C@@H](CCC(=O)O)C(=O)N[C@@H](CC(C)C)C(=O)N[C@H](C(=O)N[C@@H](CCC(=O)O)C(N)=O)C(C)C)NC(=O)[C@H](CCC(N)=O)NC(=O)[C@H](CC(C)C)NC(=O)[C@H](CC(C)C)NC1=O)[C@@H](C)O)C(C)C`, the IC50 was 2.05 µM (H3255 (EGFR L858R); cell viability; 18 h, serum-free).
The IC50 of `CCOc1ccccc1-n1c(CN2[C@@H]3CC[C@H]2CNC3)nc2ccccc2c1=O` is reported as 10.1 µM (PANC-1; cell growth or viability, ATP luminescence; 72 h).

Some of these lines once more:
`CC[C@H](C)[C@H](NC(=O)[C@H](Cc1c[nH]cn1)NC(=O)[C@H](CCCNC(=N)N)NC(=O)[C@H](CCCNC(=N)N)NC(=O)[C@H](CCCNC(=N)N)NC(=O)CNC(=O)[C@H](CCCNC(=N)N)NC(=O)[C@H](CCCNC(=N)N)NC(=O)[C@H](CCCNC(=N)N)NC(=O)[C@H](CCC(N)=O)NC(=O)[C@H](CCCNC(=N)N)NC(=O)[C@H](CCCNC(=N)N)NC(=O)[C@H](CCCCN)NC(=O)[C@H](CCCCN)NC(=O)[C@H](CCCNC(=N)N)NC(C)=O)C(=O)N[C@H](C(=O)N[C@@H](CCCNC(=N)N)C(=O)N[C@@H](CCCCN)C(=O)N[C@@H](CCCNC(=N)N)C(=O)N[C@H](C(=O)N[C@@H](CC(C)C)C(=O)N[C@@H](CCCNC(=N)N)C(=O)N[C@@H](CCCNC(=N)N)C(=O)N[C@@H](CC(C)C)C(=O)N[C@@H](CC(C)C)C(=O)N[C@@H](CCC(N)=O)C(=O)N[C@@H](CCC(=O)O)C(=O)N[C@@H](CCCNC(=N)N)C(N)=O)[C@@H](C)O)C(C)C` gave an IC50 of greater than 10 µM (SK-N-MC; cell viability; 18 h, serum-free).
With `CC1CCC2C(C)C(OC(=O)CCC(=O)N3CCN(CC(=O)Nc4ccc([N+](=O)[O-])c(C(F)(F)F)c4)CC3)OC3OC4(C)CCC1C32OO4` (stereo not shown) the IC50 was 0.56 µM (OVCAR-3; cell growth or viability, CCK-8).
For `CC(=O)N[C@H](C(=O)N[C@@H](CCCNC(=N)N)C(=O)N[C@@H](CCCCN)C(=O)N[C@@H](CCCNC(=N)N)C(=O)N[C@H](C(=O)N[C@@H](CC(C)C)C(=O)N[C@@H](CCCNC(=N)N)C(=O)N[C@@]1(C)CCCC=CCCC[C@@](C)(C(=O)N[C@@H](CCCNC(=N)N)C(=O)N[C@@H](CCC(=O)O)C(=O)N[C@@H](CC(C)C)C(=O)N[C@H](C(=O)N[C@@H](CCC(=O)O)C(N)=O)C(C)C)NC(=O)[C@H](CCC(N)=O)NC(=O)[C@H](CC(C)C)NC(=O)[C@H](CC(C)C)NC1=O)[C@@H](C)O)C(C)C`, the IC50 was 2.05 µM (H3255 (EGFR L858R); cell viability; 18 h, serum-free).
